Results of several laboratories.
Parts stem from different laboratories: compare values within a part only.
Sequence of UniProt P07949 (whole entry, unmodified, looked up): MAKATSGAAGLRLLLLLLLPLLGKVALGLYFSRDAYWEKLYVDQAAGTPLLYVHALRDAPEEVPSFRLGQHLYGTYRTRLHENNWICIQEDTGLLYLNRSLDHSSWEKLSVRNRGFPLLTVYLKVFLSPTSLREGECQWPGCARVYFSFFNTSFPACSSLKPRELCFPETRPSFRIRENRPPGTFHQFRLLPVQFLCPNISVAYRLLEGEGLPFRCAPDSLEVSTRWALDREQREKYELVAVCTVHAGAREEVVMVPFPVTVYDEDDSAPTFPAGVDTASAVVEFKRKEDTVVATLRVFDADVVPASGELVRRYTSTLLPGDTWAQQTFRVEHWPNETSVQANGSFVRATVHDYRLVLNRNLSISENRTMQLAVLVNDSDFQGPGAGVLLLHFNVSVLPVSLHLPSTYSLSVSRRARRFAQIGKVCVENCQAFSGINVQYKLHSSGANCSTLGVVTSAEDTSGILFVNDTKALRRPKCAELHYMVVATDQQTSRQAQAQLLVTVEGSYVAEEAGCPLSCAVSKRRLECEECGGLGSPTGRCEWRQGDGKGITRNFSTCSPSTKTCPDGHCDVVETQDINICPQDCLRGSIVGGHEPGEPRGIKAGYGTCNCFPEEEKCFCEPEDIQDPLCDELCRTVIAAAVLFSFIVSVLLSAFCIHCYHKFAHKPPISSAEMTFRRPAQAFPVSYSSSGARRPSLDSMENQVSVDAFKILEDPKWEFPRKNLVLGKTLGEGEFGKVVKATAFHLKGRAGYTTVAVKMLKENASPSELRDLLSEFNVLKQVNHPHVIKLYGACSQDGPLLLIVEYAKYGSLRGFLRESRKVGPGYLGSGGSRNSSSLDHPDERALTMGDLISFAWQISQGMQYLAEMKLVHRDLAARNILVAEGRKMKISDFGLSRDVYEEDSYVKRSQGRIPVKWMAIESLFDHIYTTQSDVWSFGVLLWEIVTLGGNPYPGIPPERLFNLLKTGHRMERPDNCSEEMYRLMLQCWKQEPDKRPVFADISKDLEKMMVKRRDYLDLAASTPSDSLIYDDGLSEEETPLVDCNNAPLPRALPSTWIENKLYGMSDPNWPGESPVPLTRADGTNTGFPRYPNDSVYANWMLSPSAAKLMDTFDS
Sequence of UniProt Q13976 (whole entry, looked up): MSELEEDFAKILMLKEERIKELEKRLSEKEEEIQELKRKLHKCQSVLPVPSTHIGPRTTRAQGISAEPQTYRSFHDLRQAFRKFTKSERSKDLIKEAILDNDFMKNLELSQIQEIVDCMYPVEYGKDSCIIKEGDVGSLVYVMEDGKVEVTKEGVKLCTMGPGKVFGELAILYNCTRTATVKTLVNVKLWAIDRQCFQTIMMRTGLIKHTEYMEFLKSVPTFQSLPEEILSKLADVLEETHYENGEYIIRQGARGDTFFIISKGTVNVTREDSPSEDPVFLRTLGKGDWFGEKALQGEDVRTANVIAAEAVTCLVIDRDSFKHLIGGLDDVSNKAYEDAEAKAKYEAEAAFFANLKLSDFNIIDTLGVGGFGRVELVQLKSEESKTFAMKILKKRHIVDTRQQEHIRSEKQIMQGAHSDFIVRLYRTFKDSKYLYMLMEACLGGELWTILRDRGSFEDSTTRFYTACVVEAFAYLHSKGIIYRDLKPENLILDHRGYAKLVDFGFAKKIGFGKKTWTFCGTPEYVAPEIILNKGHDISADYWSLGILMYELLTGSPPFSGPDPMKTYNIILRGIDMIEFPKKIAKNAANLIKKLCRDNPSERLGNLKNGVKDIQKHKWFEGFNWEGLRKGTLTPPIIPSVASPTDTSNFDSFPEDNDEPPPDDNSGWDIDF
Sequence of UniProt P78356 (whole entry, looked up): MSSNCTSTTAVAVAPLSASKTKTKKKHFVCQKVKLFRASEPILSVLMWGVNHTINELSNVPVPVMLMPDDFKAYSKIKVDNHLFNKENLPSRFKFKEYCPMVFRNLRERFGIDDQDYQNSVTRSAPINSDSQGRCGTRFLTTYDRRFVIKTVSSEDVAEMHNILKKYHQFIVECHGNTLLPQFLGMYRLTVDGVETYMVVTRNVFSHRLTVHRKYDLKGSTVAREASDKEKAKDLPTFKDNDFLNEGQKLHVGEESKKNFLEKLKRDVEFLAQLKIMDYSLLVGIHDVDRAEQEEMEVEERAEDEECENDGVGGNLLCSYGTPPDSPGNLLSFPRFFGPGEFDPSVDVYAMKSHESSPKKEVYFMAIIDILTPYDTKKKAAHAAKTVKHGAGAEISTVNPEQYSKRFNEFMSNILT
Sequence of UniProt Q9BUB5 (whole entry, looked up): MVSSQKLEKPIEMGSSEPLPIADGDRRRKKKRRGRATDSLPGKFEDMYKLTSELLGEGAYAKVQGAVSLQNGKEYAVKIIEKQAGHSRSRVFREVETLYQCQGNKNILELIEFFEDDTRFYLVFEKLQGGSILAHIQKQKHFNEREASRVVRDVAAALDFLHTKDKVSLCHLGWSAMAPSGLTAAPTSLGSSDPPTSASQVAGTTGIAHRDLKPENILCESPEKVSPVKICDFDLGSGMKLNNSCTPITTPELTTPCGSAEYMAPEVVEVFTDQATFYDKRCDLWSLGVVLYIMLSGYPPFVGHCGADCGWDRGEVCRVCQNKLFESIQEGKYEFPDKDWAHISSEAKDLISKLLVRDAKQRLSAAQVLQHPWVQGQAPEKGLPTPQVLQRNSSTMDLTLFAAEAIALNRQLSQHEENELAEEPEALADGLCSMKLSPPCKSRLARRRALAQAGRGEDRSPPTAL
Sequence of UniProt Q99759 (whole entry, looked up): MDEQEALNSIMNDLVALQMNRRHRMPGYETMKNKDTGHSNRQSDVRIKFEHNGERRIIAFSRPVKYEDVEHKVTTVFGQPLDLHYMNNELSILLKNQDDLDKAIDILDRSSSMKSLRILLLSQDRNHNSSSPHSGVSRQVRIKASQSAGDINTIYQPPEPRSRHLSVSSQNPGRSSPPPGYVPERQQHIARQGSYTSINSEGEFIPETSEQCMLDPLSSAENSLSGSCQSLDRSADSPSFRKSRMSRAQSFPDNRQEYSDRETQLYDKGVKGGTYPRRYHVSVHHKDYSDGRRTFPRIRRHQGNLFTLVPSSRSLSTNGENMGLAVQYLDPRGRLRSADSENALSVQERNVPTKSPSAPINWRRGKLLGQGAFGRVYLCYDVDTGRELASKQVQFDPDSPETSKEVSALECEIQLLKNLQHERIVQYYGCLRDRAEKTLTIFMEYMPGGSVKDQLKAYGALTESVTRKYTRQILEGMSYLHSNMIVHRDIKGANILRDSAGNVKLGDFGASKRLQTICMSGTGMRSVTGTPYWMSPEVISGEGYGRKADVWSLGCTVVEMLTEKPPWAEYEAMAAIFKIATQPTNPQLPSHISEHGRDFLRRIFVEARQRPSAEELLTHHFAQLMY
Sequence of UniProt P42680 (whole entry, looked up): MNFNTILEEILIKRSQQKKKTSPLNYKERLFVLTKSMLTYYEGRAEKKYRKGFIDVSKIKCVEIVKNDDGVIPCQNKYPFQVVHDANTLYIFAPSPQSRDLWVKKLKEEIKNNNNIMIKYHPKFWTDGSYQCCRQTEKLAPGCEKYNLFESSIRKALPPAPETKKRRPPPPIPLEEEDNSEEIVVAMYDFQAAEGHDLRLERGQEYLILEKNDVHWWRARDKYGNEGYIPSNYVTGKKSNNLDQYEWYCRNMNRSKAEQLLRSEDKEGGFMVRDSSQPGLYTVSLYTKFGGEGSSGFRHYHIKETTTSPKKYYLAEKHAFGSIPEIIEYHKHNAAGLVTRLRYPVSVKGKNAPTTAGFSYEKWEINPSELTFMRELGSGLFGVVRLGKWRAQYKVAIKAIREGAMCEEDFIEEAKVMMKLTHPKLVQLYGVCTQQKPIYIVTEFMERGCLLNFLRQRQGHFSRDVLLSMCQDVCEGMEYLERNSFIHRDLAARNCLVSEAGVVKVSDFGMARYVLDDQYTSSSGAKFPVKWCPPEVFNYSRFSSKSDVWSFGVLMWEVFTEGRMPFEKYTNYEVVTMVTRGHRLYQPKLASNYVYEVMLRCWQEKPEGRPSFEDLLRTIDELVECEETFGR
Sequence of UniProt P57078 (whole entry, looked up): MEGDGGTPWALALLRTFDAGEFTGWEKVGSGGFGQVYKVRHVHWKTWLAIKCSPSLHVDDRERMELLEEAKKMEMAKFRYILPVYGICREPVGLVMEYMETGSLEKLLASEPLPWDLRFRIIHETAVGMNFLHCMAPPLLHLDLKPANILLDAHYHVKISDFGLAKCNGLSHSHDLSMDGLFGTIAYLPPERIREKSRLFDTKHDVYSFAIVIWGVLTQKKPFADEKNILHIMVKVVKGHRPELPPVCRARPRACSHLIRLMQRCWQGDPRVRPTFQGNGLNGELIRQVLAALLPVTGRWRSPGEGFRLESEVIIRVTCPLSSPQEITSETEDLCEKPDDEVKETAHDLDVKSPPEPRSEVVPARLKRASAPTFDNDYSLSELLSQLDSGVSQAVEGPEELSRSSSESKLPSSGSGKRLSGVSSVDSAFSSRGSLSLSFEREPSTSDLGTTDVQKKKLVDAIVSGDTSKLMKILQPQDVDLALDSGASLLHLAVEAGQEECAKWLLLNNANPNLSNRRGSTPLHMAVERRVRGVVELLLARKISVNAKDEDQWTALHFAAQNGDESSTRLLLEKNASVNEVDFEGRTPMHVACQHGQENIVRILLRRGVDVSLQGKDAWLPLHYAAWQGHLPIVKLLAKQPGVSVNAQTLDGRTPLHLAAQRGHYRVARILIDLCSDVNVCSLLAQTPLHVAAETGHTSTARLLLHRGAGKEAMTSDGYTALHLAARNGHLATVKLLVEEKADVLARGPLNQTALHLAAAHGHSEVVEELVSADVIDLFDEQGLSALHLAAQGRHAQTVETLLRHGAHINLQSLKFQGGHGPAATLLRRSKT

Series 1
Target: Prothrombin, mature alpha-thrombin (F2, Homo sapiens, UniProt P00734)
Technique: aptamer microarray, sandwich
Molecule type: DNA with 2'F-ANA
Matrix: in vitro
Tested at: 200 nM
Notes: whole 15-mer aptamer, many near background
Added: Cy3 exosite-II aptamer, 400 nM
Reading: higher = stronger binding
Endpoint: mean fluorescence intensity
Sequence: GGTTGGTGTGGTTGG
Modification = 2'F-ANA at 2 4 5 7 9 10 11 12 14; result = 86.2 a.u.
Modification = 2'F-ANA at 3 4 6 7 9 10 11 14 15; result = 152 a.u.
Modification = 2'F-ANA at 1 4 5 11 12 13 14; result = 48 a.u.
Modification = 2'F-ANA at 3 5 6 7 10 11 12 13 14; result = 48.2 a.u.
Modification = 2'F-ANA at 1 2 3 5 11 13 15; result = 50.5 a.u.
Modification = 2'F-ANA at 1 2 4 5 7 8 9 11 12; result = 94.3 a.u.
Modification = 2'F-ANA at 1 2 4 5 6 10 13; result = 62.2 a.u.
Modification = 2'F-ANA at 4 10 12; result = 132 a.u.

Series 2
SMILES: CCCCc1c(-c2ccc(O)cc2)[nH]c2nccnc12
Read-out: enzyme activity
Mode: inhibitor
Tested at: 0.5 µM
Relative to: control
Endpoint: remaining activity
target = Mitogen-activated protein kinase kinase kinase 3 (MAP3K3, Homo sapiens, UniProt Q99759); result = 127%
target = cAMP-dependent protein kinase catalytic subunit alpha (PRKACA, Homo sapiens, UniProt P17612); result = 89.7%
target = Protein kinase C alpha type (PRKCA, Homo sapiens, UniProt P17252); result = 83.7%
target = cGMP-dependent protein kinase 1, isoform beta (PRKG1, Homo sapiens, UniProt Q13976); result = 88.8%
target = Serine/threonine-protein kinase 10 (STK10, Homo sapiens, UniProt O94804); result = 82.8%

Series 3
Structure (SMILES): Nc1cnc(N2CCc3cc(S(=O)(=O)Nc4c(F)cc(Cl)cc4F)cc(N4CCCC4=O)c32)nc1
Read-out: cell-free assay
Technique: competition with immobilised ligand
Tested at: 1 µM
Endpoint: remaining binding
target = Ephrin type-A receptor 1 (EPHA1, Homo sapiens, UniProt P21709); result = 99%
target = Death-associated protein kinase 3 (DAPK3, Homo sapiens, UniProt O43293); result = 83%
target = Phosphatidylinositol 5-phosphate 4-kinase type-2 beta (PIP4K2B, Homo sapiens, UniProt P78356); result = 100%
target = Ephrin type-B receptor 2 (EPHB2, Homo sapiens, UniProt P29323); result = 87%
target = Tyrosine-protein kinase Tec (TEC, Homo sapiens, UniProt P42680); result = 99%
target = Ribosomal protein S6 kinase alpha-3, C-terminal kinase domain (RPS6KA3, Homo sapiens, UniProt P51812); result = 84%
target = Proto-oncogene tyrosine-protein kinase receptor Ret (RET, Homo sapiens, UniProt P07949, M918T); result = 100%
target = Insulin receptor-related protein (INSRR, Homo sapiens, UniProt P14616); result = 100%
target = Receptor-interacting serine/threonine-protein kinase 4 (RIPK4, Homo sapiens, UniProt P57078); result = 76%
target = MAP kinase-interacting serine/threonine-protein kinase 1 (MKNK1, Homo sapiens, UniProt Q9BUB5); result = 98%
target = Phosphatidylinositol 3-kinase catalytic subunit type 3 (PIK3C3, Homo sapiens, UniProt Q8NEB9); result = 100%

Series 4
Target: RNA binding protein fox-1 homolog 2, RRM domain, GST-SBP tag (RBFOX2, Homo sapiens, UniProt O43251-10, residues 100-194)
Technique: RNA Bind-n-Seq
Molecule type: RNA
Matrix: in vitro
Tested at: 365 nM
Notes: natural RNA segment, single round, ends assumed
Relative to: no-protein control
Reading: higher = stronger binding
Endpoint: RBNS enrichment (R)
All sequences stand within: GGGAGUUCUACAGUCCGACGAUC … UGGAAUUCUCGGGUGCCAA
Residues (chain): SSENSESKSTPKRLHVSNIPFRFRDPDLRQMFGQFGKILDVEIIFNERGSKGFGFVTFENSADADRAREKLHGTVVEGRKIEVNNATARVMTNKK
Sequence = UCCCUAGGUCCUUCCCUGGCUUGUUAUAACGCAAAGCUUGGUUGUUUAUGCAACUCUAUCUUAAGAACUGCCCAGCCUCAGCUGAAAACCCGAAUCUGAGAAGGAAUUGC; result = 1.84
Sequence = AAUAAGCAUGAUGGUGCCUUCUAUUACAUCAUUCCAGUCUUGCUGGUGAUCCUGUACGGUGUGGUCUAUGAAUUGCUGCACUGCAAAGCCACACAGCUGCAAAACGUUGA; result = 8.63
Sequence = GAGACCUAUAAAUCCAACCAGUUACCCUGCAAGUCAGCCCCAUCUGCUGUUCCUUGGUCUCUAAUCACCUGAGCUGGGUAAAGGGGAUUCUGGGAGUUGAGAGCUCUGCC; result = 0.493
Sequence = GGCCCCCACCCCUCCUGCCAACCAGCACACUACAUACACUACUAUAGAAACACUACAGGUGUGUGCACACAGCACUCAGGUUGGCAUGUUUGGUGUUGAAAUGGGGUCAU; result = 0.409
Sequence = AAAAAGACAUUCCAGAGCAUAGCCUUUUGGUAACUUUCUAGGUAAUCUUGCAAUCUCUCCAUACUGGCUCCAUGUUGAAAUUGCUUUUUCCCUCAGGACCCUGGGUAAGA; result = 0.469
Sequence = AGAGAAAGAAAUGCUGUGAGCACAUGACAAAAUAAAAUCAAAUAAAAUGGAUGAUUCAGCUUAAGUGACUUUCUCCCCCCUCUCCCUUCUGAAUUCAGAUGAGAGUCACG; result = 0.355
Sequence = UCCUGGGAUCCGGGAGUCCAUCCCGGCCCAGCACCCCCAGCAUCCCCGUGUAUGGCCCCCCUGCACCUCCUUGUCUCAUCCCCGAAGAUCCGUCCCCCUGGCCCCUCAGU; result = 4.19
Sequence = AAAAAUCAACUCACUGUUCAGUGCUGAGAGGGGAUGUAGGCCCAUGGGCACCUGGCCUCCAGGAGUCGCUGUGUUGGGAGAGCCGGCCACGCCCUUGGCUUUAGAGCUGU; result = 0.406

Some of these lines once more (series 1):
Modification = 2'F-ANA at 1 2 3 5 11 13 15; result = 50.5 a.u.
Modification = 2'F-ANA at 1 2 4 5 6 10 13; result = 62.2 a.u.
Modification = 2'F-ANA at 4 10 12; result = 132 a.u.
Modification = 2'F-ANA at 3 5 6 7 10 11 12 13 14; result = 48.2 a.u.
Modification = 2'F-ANA at 1 4 5 11 12 13 14; result = 48 a.u.
